Experimental data pooled from the literature.
Compare with care: the assays were run in different laboratories. Values joined by “and” are separate records of one study, mostly repeats; a detail may differ. Numbers after ± are the reported error.

SMILES | tested on | assay | system | setting | how to read | endpoint | result
N[C@@H](CNC(=O)N[C@@H](CS)C(=O)NCC(=O)O)C(=O)O | – | – | mouse C57BL/6, Aβ i.c.v. model, somatosensory cortex S1BF | intranasal, dose not given | – | GFAP immunoreactivity | 10.5 ± 0.5 % area
COC1OC(C)C(OC2OC(C)C(O)C(OC3OC(C)C(OC4OC(C)C(O)C(OS(=O)(=O)O)C4OS(=O)(=O)O)C(OS(=O)(=O)O)C3OS(=O)(=O)O)C2OS(=O)(=O)O)C(OS(=O)(=O)O)C1OS(=O)(=O)O (stereo not shown) | – | – | human plasma | 128 µg/mL | reference: control | APTT prolongation | 1.5 fold
COc1ccccc1-c1ccncc1C(=O)Nc1nnc(OCc2ccc(Cl)cc2)s1 | – | – | Brca1 Δ11/Δ11 MEF sgGFP, Mus musculus | 20 µM, mean of runs 2, 3 | reference: 0 µM | colony survival | 15.1%
COC(=O)C1CN1S(=O)(=O)c1ccc2cc(C)ccc2c1 (stereo not shown) | – | – | mouse, Lewis lung carcinoma | ip, 100 mg/kg, 312 h | – | tumour growth inhibition | 50%
COC1OC(C)C(OC2OC(C)C(O)C(OC3OC(C)C(OC4OC(C)C(O)C(OC5OC(C)C(O)C(OS(=O)(=O)O)C5OS(=O)(=O)O)C4OS(=O)(=O)O)C(OS(=O)(=O)O)C3OS(=O)(=O)O)C2OS(=O)(=O)O)C(OS(=O)(=O)O)C1OS(=O)(=O)O (stereo not shown) | – | – | human plasma | 128 µg/mL | reference: control | APTT prolongation | 1.8 fold
Nc1ncc(-c2cc(-c3cnn(CC(F)(F)F)c3)ncc2F)nc1C(=O)NC1CNCC(F)C1 (stereo not shown) | DAPK3 | KINOMEscan | – | 1 µM | reference: DMSO control | remaining binding | 100%
COc1cc2c(NC3CCN(C(C)C)CC3)cc(N3CCOCC3)nc2cc1OCCCN1CCCC1 | – | TMT proteomics, measured: ENO1 | 5xFAD mouse, hippocampus | dose not given | reference: wild type | log2 fold change | 0.0363
COCCOCCOCCNC(=O)Cc1cc(CC(=O)N[C@H]2C[C@H]3C(=O)Nc4cc(OCCOCCOCCOC)cc(n4)C(=O)N4CCC[C@H]4C(=O)Nc4cc(OCCOCCOCCOC)cc(n4)C(=O)N4CCC[C@H]4C(=O)Nc4cc(OCCOCCOCCOC)cc(n4)C(=O)N3C2)cc(CC(=O)N[C@H]2C[C@H]3C(=O)Nc4cc(OCCOCCOCCOC)cc(n4)C(=O)N4CCC[C@H]4C(=O)Nc4cc(OCCOCCOCCOC)cc(n4)C(=O)N4CCC[C@H]4C(=O)Nc4cc(OCCOCCOCCOC)cc(n4)C(=O)N3C2)c1 | – | anion binding, ITC | water/methanol 95 vol% (97.7 mol%) | 298 K, with: sodium sulfate | – | ΔG | -4.947 ± 0.0478 kcal/mol
CCC(=O)N[C@@H](C)C(=O)OCC(=O)N[C@@H](C)C(=O)O | – | – | water | pH 3, 25 °C | – | chain scission rate constant | 0.0003 h⁻¹
CC(C)OC(=O)[C@H](CO)NCc1cc(Cl)c(OCc2cccc(-c3ccccc3)c2Br)cc1OCc1cccnc1 | – | – | hPD-L1 MC-38 tumour, humanised hPD-1 C57BL/6 mouse | oral, 2.5 mg/kg × 21 | – | tumour weight | 2.36 ± 1.31 g
COC1OC(C)C(OS(=O)(=O)O)C(OC2OC(C)C(OS(=O)(=O)O)C(OC3OC(C)C(OS(=O)(=O)O)C(OS(=O)(=O)O)C3O)C2O)C1O (stereo not shown) | – | – | human plasma | 128 µg/mL | reference: control | APTT prolongation | 1.4 fold
CN1CCC[C@]1(C)/C=C/S(=O)(=O)NC(=O)Nc1c2c(cc3c1CCC3)CCC2 | – | – | human, whole blood ex vivo | 25 mg single dose, 6 h, single ascending dose, with: LPS and ATP | – | IL-18 inhibition | 94.8%
COC1OC(C)C(OS(=O)(=O)O)C(OC2OC(C)C(OS(=O)(=O)O)C(OS(=O)(=O)O)C2O)C1O (stereo not shown) | – | – | human plasma | 128 µg/mL | reference: control | APTT prolongation | 1.2 fold
CCOC(=O)CCCCC1NCCc2ccc(O)c(O)c21 (stereo not shown) | – | ferrozine | cell-free | 100 µM, DMSO solvent | – | Fe2+ chelation | 94.97 ± 0.93%
COc1c(Cl)cccc1Nc1c(-c2ccncc2C#C[C@@]2(C)CCCN2C(=O)/C=C/CN(C)C)[nH]c2c1C(=O)NCC2 | – | – | female BALB/c nude mouse, sample A PDX | 50 mg/kg once daily, 28 days, EGFR ASV | – | tumour regression | 36.9%
COC1OC(C)C(OC2OC(C)C(OS(=O)(=O)O)C(OC3OC(C)C(OC4OC(C)C(OS(=O)(=O)O)C(OS(=O)(=O)O)C4O)C(OS(=O)(=O)O)C3O)C2O)C(OS(=O)(=O)O)C1O (stereo not shown) | – | – | human plasma | 128 µg/mL | reference: control | APTT prolongation | 1.1 fold
O=[N+]([O-])c1cc(Br)cc([N+](=O)[O-])c1NS(=O)(=O)c1ccc(Br)cc1 | – | RNA-seq, measured: AT1G02930 | Arabidopsis thaliana Col seedlings | dose not given | reference: DMSO | log2 fold change | 2.42
CCCCCCCCN(CCC(=O)Nc1ccccc1)C(=O)c1ccccn1 | – | immunofluorescence | Lmna G609G/G609G progeroid mice, aortic arch | dose not given | reference: vehicle | perivascular WGA deposition | 25%
O=C(N[C@@H](Cc1ccc(OCCCCC2CCNCC2)cc1)C(=O)O)c1nc2ccccc2o1.O=C(O)C(F)(F)F | – | – | human, platelet-rich plasma | 1.5 µM, with: thrombin | – | clot retraction velocity | 0.00476 min⁻¹ and 0.0102 min⁻¹ and 0.00492 min⁻¹
COc1ccc(S(=O)(=O)N2CCc3ccccc3C2)cc1N1CCN(C(=O)c2ccc(F)cc2C(F)(F)F)CC1 | – | stereology, optical fractionator, measured: tyrosine hydroxylase | rat, 6-OHDA lesion model, substantia nigra pars compacta | 0.3 µg/24 h | reference: lesioned over intact side | TH-immunoreactive cell ratio | 15.1 ± 3.2%

SMILES | tested on | assay | system | setting | how to read | endpoint | result
COc1ccc(NC(=O)c2ccc3[nH]c(-c4ccc(N(C)C)cc4)nc3c2)cn1 | – | – | Lewis lung carcinoma, mice, syngeneic graft, subcutaneous | intraperitoneal, 50 mg/kg daily, day 10 | – | tumour volume | 51.5 mm3 and 345 mm3 and 565 mm3 and 425 mm3 and 167 mm3
COC1OC(C)C(O)C(OC2OC(C)C(O)C(OC3OC(C)C(O)C(OC4OC(C)C(O)C(OC5OC(C)C(O)C(OC6OC(C)C(O)C(OC7OC(C)C(O)C(OC8OC(C)C(O)C(OS(=O)(=O)O)C8OS(=O)(=O)O)C7OS(=O)(=O)O)C6OS(=O)(=O)O)C5OS(=O)(=O)O)C4OS(=O)(=O)O)C3OS(=O)(=O)O)C2OS(=O)(=O)O)C1OS(=O)(=O)O (stereo not shown) | – | – | human plasma | 128 µg/mL | reference: control | APTT prolongation | 1.3 fold
COc1ccc(C(=O)CCc2cc(C(CCc3ccc(O)cc3OC)c3ccc(O)cc3)c(O)cc2OC)cc1 (racemic) | – | – | human blood | 0.3 µM, with: A23187 | – | arachidonic acid level | 94300 ± 10600 pg/mL
C#CC(C)(C)C(=O)SCCOP1(=O)OCC2OC(n3cnc4c(N)ncnc43)CC2OP(=O)(OCCSC(=O)C(C)(C)C#C)OCC2OC(n3cnc4c(N)ncnc43)CC2O1 (stereo not shown) | – | flow cytometry | mouse CT26 tumour model, tumour tissue | dose not given | – | M1 macrophages | 70%
O=Cc1cc(C(F)(F)F)ccc1B(O)O | – | HPLC-MS | – | pH 10.2, with: 50 mM N-α-acetyl-lysine | – | pseudo-first-order rate constant | 0 h⁻¹
Nc1nc2cnc(C(=O)N3CCOC[C@@H]3c3ccc(C(F)(F)F)cc3)cc2c2c1COC2 | – | ELISA, measured: SDMA | mouse, HCT-116 MTAP wild type xenograft, tumour | oral, 100 mg/kg once daily | reference: vehicle | inhibition | 76%
Cc1ccc(Nc2nc(NCc3ccco3)c3ccccc3n2)cc1 | Trypanosoma cruzi | reporter mRNA translation, inhibitor, measured: Renilla luciferase mRNA | cell-free extract | concentration not given, test 1 | reference: positive over negative control | translation activity | 76.1%
CNS(=O)(=O)Nc1nccc(Cc2c(C)c3ccc(Oc4ncccc4F)cc3oc2=O)c1F | EN | cell viability, CellTiter-Glo | – | 7 days | – | IC50 | > 1000 nM
CC(C)[C@H](NC(=O)[C@H](CC(=O)O)NC(=O)[C@@H](NC(=O)[C@H](Cc1c[nH]c2ccccc12)NC(=O)[C@H](CCC(=O)O)NC(=O)[C@H](C)NC(=O)[C@H](CC(=O)O)NC(=O)CNC(=O)[C@H](Cc1ccc(O)cc1)NC(=O)[C@H](Cc1ccc(OP(=O)(O)O)cc1)NC(=O)[C@H](Cc1ccc(O)cc1)NC(=O)CCNC(=O)c1ccc(C(=O)[O-])c(-c2c3ccc(=[N+](C)C)cc-3oc3cc(N(C)C)ccc23)c1)C(C)C)C(=O)N[C@@H](CO)C(=O)O | – | immunohistochemistry | ApoE-/- mice, aortic sinus sections | dose not given, 21 days | – | CD68-positive area | 19.7 ± 6.64%
CC(=O)[O-].O.[Cu+2].[O-]c1ccc(Br)cc1C=NCCN1CCOCC1 | – | nitric oxide scavenging | – | 120 µM | – | inhibition | 29.3%
COc1ccc2c(c1)CN(C(=O)CCN1CCC(Cc3ccccc3)CC1)CC[S+]2[O-] (stereo not shown) | – | – | patients with paroxysmal atrial fibrillation | unbound concentration 0.3 to 0.8 µM | – | AF conversion rate | 60%
CC[C@H](C)NCC(SS(=O)(=O)O)c1ccccc1 (stereo partly shown) | – | – | Swiss Webster mice, Schistosoma mansoni infected | 100 mg/kg | reference: vehicle control | spleen weight decrease | -8%
CN1CCCNC(=O)c2cccc(c2)C(=O)NCCCN(C)CCCNc2cccc3c2C(=O)c2cccc(c2C3=O)NCCC1 | SAS | RNA-Seq, measured: MRPL2 mRNA | – | 1 µM, 6 h | reference: untreated cells | log2 fold change | 0.418
Cc1ncsc1-c1ccc(C(C)NC(=O)C2CC(O)CN2C(=O)C(NC(=O)CCCCCCCCCCN2CCCC(Nc3ncc(Cl)c(Nc4ccccc4S(=O)(=O)C(C)C)n3)C2)C(C)(C)C)cc1 (stereo not shown) | 22Rv1 | RNA-seq, measured: LIPT2 mRNA | – | concentration not given | reference: DMSO | log2 fold change | -1.15
Cc1cc(Cl)c(OCCOCCN2CCN(C)CC2)c(Br)c1.O=C(O)C(=O)O | Trypanosoma cruzi | reporter mRNA translation, inhibitor, measured: Renilla luciferase mRNA | cell-free extract | concentration not given, test 1 | reference: positive over negative control | translation activity | 120%
COC1CN([C@H]2CC[C@H]([C@@]3(C)Oc4c(Cl)cc(C(=O)NCc5c(SC)cc(C)[nH]c5=O)c(C)c4O3)CC2)C1 | – | RNA-seq, measured: MTERF2 mouse homolog | mouse, HT-1376 xenograft, whole blood | dose not given | reference: vehicle | log2 fold change | 0.777
COc1cc(O)ccc1CCC(c1ccc(O)cc1)c1cc2c(c(C)c1O)OC(c1ccc(O)cc1)CC2 (mixture of isomers) | – | – | human blood | 30 µM, with: A23187 | – | arachidonic acid level | 111000 ± 12200 pg/mL
Cc1cc2cc(C(=O)N(Cc3ccc(C(F)(F)F)cn3)[C@H](C)c3ncccn3)ccc2nc1N | – | ELISA, measured: SDMA | mouse, HCT-116 MTAP-deleted xenograft, tumour | oral, 100 mg/kg once daily, 7 doses, 4 h after last dose | reference: vehicle | inhibition | 86%
C=CC(=O)Nc1cccc(Cn2ncc3cnc(Nc4cnn(CCOC)c4)nc32)c1 | human SIK | KINOMEscan | – | 100 nM | reference: control | binding | 85%
CCCC[C@@H]1NC(=O)[C@@H](CC(C)C)NC(=O)[C@H](CCCCNC(=O)CN2CCN(CC(=O)O)CCN(CC(=O)O)CC2)NC(=O)[C@@H](CO)NC(=O)[C@H](Cc2c[nH]cn2)NC(=O)[C@@H](Cc2c[nH]c3ccccc23)NC1=O [copper-64 labelled] | – | – | Balb/c mice, heart | intravenous, dose not given | – | tissue uptake | 0.19 ± 0.05 %ID/g

Repeated from above:
SMILES | tested on | assay | system | setting | how to read | endpoint | result
O=C(N[C@@H](Cc1ccc(OCCCCC2CCNCC2)cc1)C(=O)O)c1nc2ccccc2o1.O=C(O)C(F)(F)F | – | – | human, platelet-rich plasma | 1.5 µM, with: thrombin | – | clot retraction velocity | 0.00476 min⁻¹ and 0.0102 min⁻¹ and 0.00492 min⁻¹
Cc1cc2cc(C(=O)N(Cc3ccc(C(F)(F)F)cn3)[C@H](C)c3ncccn3)ccc2nc1N | – | ELISA, measured: SDMA | mouse, HCT-116 MTAP-deleted xenograft, tumour | oral, 100 mg/kg once daily, 7 doses, 4 h after last dose | reference: vehicle | inhibition | 86%
